{"data": "Measurements from different studies", "note": "Each numbered part is a random draw from the data of one study; scales do not carry over between parts.", "chain of UniProt P42336 (whole entry, unmodified, looked up)": "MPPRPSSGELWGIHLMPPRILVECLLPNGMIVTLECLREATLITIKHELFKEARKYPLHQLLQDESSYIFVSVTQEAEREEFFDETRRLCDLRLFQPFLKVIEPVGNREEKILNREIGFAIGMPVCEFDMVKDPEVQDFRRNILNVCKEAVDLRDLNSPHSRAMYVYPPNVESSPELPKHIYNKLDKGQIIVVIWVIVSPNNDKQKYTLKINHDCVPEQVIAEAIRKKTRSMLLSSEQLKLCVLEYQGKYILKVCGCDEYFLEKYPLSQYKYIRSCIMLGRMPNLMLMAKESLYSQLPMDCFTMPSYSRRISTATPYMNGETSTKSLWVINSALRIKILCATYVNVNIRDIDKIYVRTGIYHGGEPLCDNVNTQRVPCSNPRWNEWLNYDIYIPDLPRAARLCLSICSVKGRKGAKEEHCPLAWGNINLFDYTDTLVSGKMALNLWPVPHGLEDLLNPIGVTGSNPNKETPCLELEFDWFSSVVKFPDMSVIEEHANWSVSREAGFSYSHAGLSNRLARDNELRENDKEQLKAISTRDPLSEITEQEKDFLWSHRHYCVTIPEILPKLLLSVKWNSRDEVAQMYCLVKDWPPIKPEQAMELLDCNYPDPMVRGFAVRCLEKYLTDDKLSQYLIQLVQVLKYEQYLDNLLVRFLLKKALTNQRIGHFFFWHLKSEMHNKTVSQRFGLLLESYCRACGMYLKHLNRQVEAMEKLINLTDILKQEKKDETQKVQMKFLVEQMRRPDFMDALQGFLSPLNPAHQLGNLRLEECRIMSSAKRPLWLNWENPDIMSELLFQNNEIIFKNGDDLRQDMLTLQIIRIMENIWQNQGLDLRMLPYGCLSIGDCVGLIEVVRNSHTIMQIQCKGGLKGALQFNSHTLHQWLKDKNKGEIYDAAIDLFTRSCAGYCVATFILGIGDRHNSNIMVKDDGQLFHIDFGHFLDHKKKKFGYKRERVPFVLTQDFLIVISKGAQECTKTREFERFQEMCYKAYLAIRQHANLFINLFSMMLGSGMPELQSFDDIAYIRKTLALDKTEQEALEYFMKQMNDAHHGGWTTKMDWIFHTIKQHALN", "chain of UniProt O94768 (whole entry, looked up)": "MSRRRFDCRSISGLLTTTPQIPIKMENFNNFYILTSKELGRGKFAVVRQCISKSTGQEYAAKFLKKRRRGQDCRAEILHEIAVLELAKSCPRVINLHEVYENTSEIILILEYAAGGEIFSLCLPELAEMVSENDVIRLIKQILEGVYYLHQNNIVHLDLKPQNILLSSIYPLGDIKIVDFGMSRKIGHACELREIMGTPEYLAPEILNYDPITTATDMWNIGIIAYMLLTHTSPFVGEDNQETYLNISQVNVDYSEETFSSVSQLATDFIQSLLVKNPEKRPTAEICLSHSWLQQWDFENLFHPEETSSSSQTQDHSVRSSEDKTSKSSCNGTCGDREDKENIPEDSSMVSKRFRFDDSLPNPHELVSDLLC", "chain of UniProt Q9UM73 (whole entry, looked up)": "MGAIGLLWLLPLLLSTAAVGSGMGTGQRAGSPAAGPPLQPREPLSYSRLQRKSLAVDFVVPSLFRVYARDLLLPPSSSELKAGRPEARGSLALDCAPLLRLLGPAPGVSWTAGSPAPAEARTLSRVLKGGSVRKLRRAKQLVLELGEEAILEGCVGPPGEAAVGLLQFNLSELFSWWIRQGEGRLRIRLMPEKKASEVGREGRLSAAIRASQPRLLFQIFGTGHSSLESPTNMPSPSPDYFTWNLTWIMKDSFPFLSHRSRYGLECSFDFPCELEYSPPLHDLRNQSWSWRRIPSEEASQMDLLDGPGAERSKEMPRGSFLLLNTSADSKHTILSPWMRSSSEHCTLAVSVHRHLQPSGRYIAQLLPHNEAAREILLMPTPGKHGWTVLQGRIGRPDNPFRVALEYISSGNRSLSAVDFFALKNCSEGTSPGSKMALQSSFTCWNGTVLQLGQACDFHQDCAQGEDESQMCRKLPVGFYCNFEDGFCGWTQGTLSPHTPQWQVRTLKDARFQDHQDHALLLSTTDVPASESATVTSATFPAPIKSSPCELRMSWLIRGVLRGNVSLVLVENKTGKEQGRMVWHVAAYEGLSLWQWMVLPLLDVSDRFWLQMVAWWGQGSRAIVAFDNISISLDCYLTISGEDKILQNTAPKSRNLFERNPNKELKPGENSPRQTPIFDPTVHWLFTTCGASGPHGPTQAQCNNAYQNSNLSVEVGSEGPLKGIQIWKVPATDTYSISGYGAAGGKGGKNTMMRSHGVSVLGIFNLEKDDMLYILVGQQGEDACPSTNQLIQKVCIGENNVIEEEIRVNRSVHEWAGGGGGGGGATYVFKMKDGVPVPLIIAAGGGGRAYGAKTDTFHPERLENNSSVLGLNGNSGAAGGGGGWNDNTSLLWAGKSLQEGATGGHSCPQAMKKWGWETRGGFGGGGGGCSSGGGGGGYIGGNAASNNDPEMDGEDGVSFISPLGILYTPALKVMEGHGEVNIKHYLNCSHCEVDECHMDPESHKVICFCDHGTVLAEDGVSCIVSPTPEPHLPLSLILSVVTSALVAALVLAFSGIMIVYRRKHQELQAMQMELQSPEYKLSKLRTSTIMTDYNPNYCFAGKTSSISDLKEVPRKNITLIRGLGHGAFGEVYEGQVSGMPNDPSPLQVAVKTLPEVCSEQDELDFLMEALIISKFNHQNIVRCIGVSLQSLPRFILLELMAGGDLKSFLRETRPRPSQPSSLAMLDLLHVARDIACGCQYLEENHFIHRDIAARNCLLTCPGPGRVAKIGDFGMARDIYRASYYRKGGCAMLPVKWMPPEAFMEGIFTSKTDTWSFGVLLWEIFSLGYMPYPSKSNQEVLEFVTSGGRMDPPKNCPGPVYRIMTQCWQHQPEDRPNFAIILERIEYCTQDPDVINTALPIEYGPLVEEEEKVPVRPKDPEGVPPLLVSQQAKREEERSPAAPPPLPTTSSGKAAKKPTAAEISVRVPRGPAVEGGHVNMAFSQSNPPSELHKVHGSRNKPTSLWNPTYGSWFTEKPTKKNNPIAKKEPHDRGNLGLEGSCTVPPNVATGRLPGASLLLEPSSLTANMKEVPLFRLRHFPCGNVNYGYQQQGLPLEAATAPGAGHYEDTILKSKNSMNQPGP", "chain of UniProt Q9BZL6 (whole entry, looked up)": "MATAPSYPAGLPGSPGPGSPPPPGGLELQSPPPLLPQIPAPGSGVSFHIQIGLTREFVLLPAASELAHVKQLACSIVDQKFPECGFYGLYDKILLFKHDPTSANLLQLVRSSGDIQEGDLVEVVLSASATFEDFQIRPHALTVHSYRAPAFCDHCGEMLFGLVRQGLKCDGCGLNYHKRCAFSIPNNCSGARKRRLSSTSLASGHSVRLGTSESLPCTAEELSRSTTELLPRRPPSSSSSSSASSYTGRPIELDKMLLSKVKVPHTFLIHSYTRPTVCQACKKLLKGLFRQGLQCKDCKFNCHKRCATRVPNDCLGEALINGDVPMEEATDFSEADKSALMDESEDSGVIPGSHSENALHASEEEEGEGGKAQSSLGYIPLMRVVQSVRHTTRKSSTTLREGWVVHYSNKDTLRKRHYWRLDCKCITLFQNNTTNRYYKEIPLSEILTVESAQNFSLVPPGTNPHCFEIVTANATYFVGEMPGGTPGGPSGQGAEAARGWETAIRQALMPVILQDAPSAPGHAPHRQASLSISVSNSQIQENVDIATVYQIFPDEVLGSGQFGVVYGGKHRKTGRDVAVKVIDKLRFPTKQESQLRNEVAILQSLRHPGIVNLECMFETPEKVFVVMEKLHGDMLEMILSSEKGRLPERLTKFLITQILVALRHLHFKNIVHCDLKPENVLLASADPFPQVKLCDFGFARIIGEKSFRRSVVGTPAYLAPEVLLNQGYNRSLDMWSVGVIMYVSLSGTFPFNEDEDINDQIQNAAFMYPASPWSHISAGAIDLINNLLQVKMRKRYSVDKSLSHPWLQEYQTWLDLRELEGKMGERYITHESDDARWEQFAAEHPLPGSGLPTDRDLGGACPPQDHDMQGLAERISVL"}
{"data": "Block 1", "Compound": "CN1CCN(C(=O)c2ccc(NC(=O)Nc3ccc(N(C)c4ccnc(Nc5ccc(CS(C)(=O)=O)cc5)n4)cc3)cc2)CC1", "concentration": "1 µM"}
{"target": "STK32B (Homo sapiens, UniProt Q9NY57)", "method": "competitive binding panel", "item": "YANK2", "baseline": "vehicle", "remaining binding": "100%"}
{"target": "CSNK1D (Homo sapiens, UniProt P48730)", "method": "competitive binding panel", "baseline": "vehicle", "remaining binding": "99%"}
{"target": "CILK1 (Homo sapiens, UniProt Q9UPZ9)", "method": "competitive binding scan", "remaining binding": "44%"}
{"target": "PRKD2 (Homo sapiens, UniProt Q9BZL6)", "method": "competitive binding panel", "baseline": "vehicle", "remaining binding": "100%"}
{"target": "RIPK4 (Homo sapiens, UniProt P57078)", "method": "competitive binding panel", "baseline": "vehicle", "remaining binding": "57%"}
{"target": "PIP5K1C (Homo sapiens, UniProt O60331)", "method": "competitive binding panel", "baseline": "vehicle", "remaining binding": "97%"}
{"target": "CSNK1G3 (Homo sapiens, UniProt Q9Y6M4)", "method": "competitive binding panel", "baseline": "vehicle", "remaining binding": "100%"}
{"target": "TXK (Homo sapiens, UniProt P42681)", "method": "competitive binding panel", "baseline": "vehicle", "remaining binding": "15%"}
{"target": "STK17B (Homo sapiens, UniProt O94768)", "method": "competitive binding panel", "item": "DRAK2", "baseline": "vehicle", "remaining binding": "100%"}
{"target": "WNK2 (Homo sapiens, UniProt Q9Y3S1)", "method": "competitive binding panel", "baseline": "vehicle", "remaining binding": "67%"}
{"target": "CDK4 (Homo sapiens, UniProt P11802)", "method": "competitive binding scan", "with": "cyclin D3", "remaining binding": "89%"}
{"target": "EPHA7 (Homo sapiens, UniProt Q15375)", "method": "competitive binding panel", "baseline": "vehicle", "remaining binding": "92%"}
{"target": "PKMYT1 (Homo sapiens, UniProt Q99640)", "method": "competitive binding panel", "baseline": "vehicle", "remaining binding": "96%"}
{"data": "Block 2", "cell line": "HaCaT", "concentration": "100 µM", "time": "36 h"}
{"SMILES": "C[C@H]1O[C@H](O[C@H]2[C@H](O)[C@@H](O)[C@@H](O[C@H]3[C@H](O)[C@@H](O)C(O)O[C@@H]3CO)O[C@@H]2CO)[C@H](O)[C@@H](O)[C@@H]1N[C@H]1C=C(CO)[C@@H](O)[C@H](O)[C@H]1O (some centres unmarked)", "viability [%]": 84.8}
{"SMILES": "Cc1ccc(-c2cc(C(F)(F)F)nn2-c2ccc(S(N)(=O)=O)cc2)cc1", "viability [%]": 4.28}
{"SMILES": "C[C@H](CS)C(=O)N1CCC[C@H]1C(=O)O", "viability [%]": 87.2}
{"SMILES": "CN1C(C(=O)Nc2ccccn2)=C(O)c2sccc2S1(=O)=O", "viability [%]": 52.4}
{"SMILES": "CCOC(=O)C1=C(C)NC(C)=C(C(=O)OC)C1c1cccc([N+](=O)[O-])c1 (centres unmarked)", "viability [%]": 34.2}
{"SMILES": "O=C(O)CCCN1CCC(O[C@@H](c2ccc(Cl)cc2)c2ccccn2)CC1", "viability [%]": 94.4}
{"SMILES": "OC[C@H]1O[C@@H](c2ccc(F)c(Cc3cc4ccccc4s3)c2)[C@H](O)[C@@H](O)[C@@H]1O", "viability [%]": 70.2}
{"SMILES": "CCN1CCN(c2cc3c(cc2F)c(=O)c(C(=O)O)cn3C2CC2)CC1", "viability [%]": 86.8}
{"SMILES": "N=c1ccn2c(n1)O[C@H]1[C@H](O)[C@@H](CO)O[C@H]12", "viability [%]": 41.6}
{"SMILES": "CC(=O)OCC[N+](C)(C)C", "viability [%]": 86.7}
{"SMILES": "Cc1ccccc1C(=O)Nc1ccc(C(=O)N2CCCC(N(C)C)c3ccccc32)cc1 (centres unmarked)", "viability [%]": 45}
{"SMILES": "CO[C@H]1/C=C/O[C@@]2(C)Oc3c(C)c(O)c4c(c3C2=O)C2=NC3(CCN(CC(C)C)CC3)NC2=C(NC(=O)/C(C)=C\\C=C\\[C@H](C)[C@H](O)[C@@H](C)[C@@H](O)[C@@H](C)[C@H](OC(C)=O)[C@@H]1C)C4=O", "viability [%]": 61.5}
{"data": "Block 3", "Structure (SMILES)": "O=C1CCc2cc(Nc3cc(OC4CCOCC4)c([N+](=O)[O-])cc3Cl)ccc2N1", "concentration": "1 µM"}
{"target": "LATS1 (Homo sapiens, UniProt O95835)", "read-out": "cell-free assay", "method": "competition with immobilised ligand", "remaining binding": "81%"}
{"target": "ANKK1 (Homo sapiens, UniProt Q8NFD2)", "read-out": "cell-free assay", "method": "competition with immobilised ligand", "remaining binding": "82%"}
{"target": "PRKACA (Homo sapiens, UniProt P17612)", "read-out": "cell-free assay", "method": "competition with immobilised ligand", "remaining binding": "96%"}
{"target": "STK17B (Homo sapiens, UniProt O94768)", "read-out": "cell-free assay", "method": "competition with immobilised ligand", "remaining binding": "100%"}
{"target": "DAPK2 (Homo sapiens, UniProt Q9UIK4)", "read-out": "cell-free assay", "method": "competition with immobilised ligand", "remaining binding": "79%"}
{"target": "PIK3CA (Homo sapiens, UniProt P42336, E545K)", "read-out": "cell-free assay", "method": "competition with immobilised ligand", "remaining binding": "79%"}
{"target": "EPHB6 (Homo sapiens, UniProt O15197)", "read-out": "cell-free assay", "method": "competition with immobilised ligand", "remaining binding": "100%"}
{"target": "GSK3A (Homo sapiens, UniProt P49840)", "read-out": "cell-free assay", "method": "competition with immobilised ligand", "remaining binding": "100%"}
{"target": "Tyrosine-protein kinase ABL1, phosphorylated (ABL1, Homo sapiens, UniProt P00519, F317I)", "read-out": "binding", "remaining binding": "92%"}
{"target": "CDK7 (Homo sapiens, UniProt P50613)", "read-out": "cell-free assay", "method": "competition with immobilised ligand", "remaining binding": "86%"}
{"target": "PTK2B (Homo sapiens, UniProt Q14289)", "read-out": "cell-free assay", "method": "competition with immobilised ligand", "remaining binding": "83%"}
{"target": "PNCK (Homo sapiens, UniProt Q6P2M8)", "read-out": "cell-free assay", "method": "competition with immobilised ligand", "remaining binding": "68%"}
{"target": "PRKACB (Homo sapiens, UniProt P22694)", "read-out": "cell-free assay", "method": "competition with immobilised ligand", "remaining binding": "100%"}
{"target": "FLT3 (Homo sapiens, UniProt P36888, N841I)", "read-out": "cell-free assay", "method": "competition with immobilised ligand", "remaining binding": "100%"}
{"target": "FES (Homo sapiens, UniProt P07332)", "read-out": "cell-free assay", "method": "competition with immobilised ligand", "remaining binding": "100%"}
{"target": "PRPF4B (Homo sapiens, UniProt Q13523)", "read-out": "cell-free assay", "method": "competition with immobilised ligand", "remaining binding": "100%"}
{"target": "CDK5 (Homo sapiens, UniProt Q00535)", "read-out": "cell-free assay", "method": "competition with immobilised ligand", "remaining binding": "97%"}
{"target": "PLK3 (Homo sapiens, UniProt Q9H4B4)", "read-out": "cell-free assay", "method": "competition with immobilised ligand", "remaining binding": "88%"}
{"target": "PIK3CA (Homo sapiens, UniProt P42336, H1047L)", "read-out": "cell-free assay", "method": "competition with immobilised ligand", "remaining binding": "78%"}
{"target": "PI4KB (Homo sapiens, UniProt Q9UBF8)", "read-out": "cell-free assay", "method": "competition with immobilised ligand", "remaining binding": "100%"}
{"target": "ALK (Homo sapiens, UniProt Q9UM73)", "read-out": "cell-free assay", "method": "competition with immobilised ligand", "remaining binding": "82%"}
{"target": "MERTK (Homo sapiens, UniProt Q12866)", "read-out": "cell-free assay", "method": "competition with immobilised ligand", "remaining binding": "100%"}
{"target": "FLT4 (Homo sapiens, UniProt P35916)", "read-out": "cell-free assay", "method": "competition with immobilised ligand", "remaining binding": "97%"}
{"target": "CHEK1 (Homo sapiens, UniProt O14757)", "read-out": "cell-free assay", "method": "competition with immobilised ligand", "remaining binding": "95%"}
{"target": "SYK (Homo sapiens, UniProt P43405)", "read-out": "cell-free assay", "method": "competition with immobilised ligand", "remaining binding": "100%"}
{"data": "Block 4", "target": "Proto-oncogene tyrosine-protein kinase receptor Ret (RET, Homo sapiens, UniProt P07949)", "read-out": "enzyme activity", "action": "inhibitor", "concentration": "0.5 µM", "baseline": "control", "chain of UniProt P07949 (whole entry, looked up)": "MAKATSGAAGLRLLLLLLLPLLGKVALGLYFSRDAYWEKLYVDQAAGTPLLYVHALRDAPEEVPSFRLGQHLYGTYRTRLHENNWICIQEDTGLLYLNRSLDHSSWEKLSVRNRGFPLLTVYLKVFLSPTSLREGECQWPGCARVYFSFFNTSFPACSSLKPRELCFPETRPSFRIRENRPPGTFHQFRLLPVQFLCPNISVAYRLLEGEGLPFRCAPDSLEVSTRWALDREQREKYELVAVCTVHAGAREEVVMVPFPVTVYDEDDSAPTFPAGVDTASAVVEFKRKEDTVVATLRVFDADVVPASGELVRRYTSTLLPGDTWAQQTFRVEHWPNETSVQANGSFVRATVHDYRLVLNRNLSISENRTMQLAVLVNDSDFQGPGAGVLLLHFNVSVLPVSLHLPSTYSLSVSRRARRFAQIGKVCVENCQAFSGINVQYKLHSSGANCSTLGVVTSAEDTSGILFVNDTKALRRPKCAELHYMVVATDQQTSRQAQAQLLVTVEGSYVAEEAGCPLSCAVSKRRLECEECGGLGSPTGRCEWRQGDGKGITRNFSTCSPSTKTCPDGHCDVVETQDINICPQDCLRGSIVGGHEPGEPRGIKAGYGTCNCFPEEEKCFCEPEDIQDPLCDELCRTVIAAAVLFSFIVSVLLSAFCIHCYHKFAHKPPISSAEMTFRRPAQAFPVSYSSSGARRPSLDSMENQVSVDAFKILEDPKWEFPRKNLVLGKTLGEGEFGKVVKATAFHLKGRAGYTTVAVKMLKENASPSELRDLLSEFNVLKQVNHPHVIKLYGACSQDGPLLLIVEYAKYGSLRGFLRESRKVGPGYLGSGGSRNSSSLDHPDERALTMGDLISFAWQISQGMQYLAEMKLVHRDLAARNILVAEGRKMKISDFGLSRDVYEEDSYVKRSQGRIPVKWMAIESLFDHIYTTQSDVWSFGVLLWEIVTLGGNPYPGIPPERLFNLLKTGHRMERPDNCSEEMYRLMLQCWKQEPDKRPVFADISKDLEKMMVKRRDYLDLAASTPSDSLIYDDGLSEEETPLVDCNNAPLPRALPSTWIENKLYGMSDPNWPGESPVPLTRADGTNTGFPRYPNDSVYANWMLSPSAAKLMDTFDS"}
{"SMILES": "Cn1c2ccccc2c2c3c(c4c5ccccc5n(CCC#N)c4c21)CNC3=O", "remaining activity": "0.516%"}
{"SMILES": "CC(C)[C@H](CO)Nc1nc(Nc2cc(N)cc(Cl)c2)c2ncn(C(C)C)c2n1", "remaining activity": "61.6%"}
{"SMILES": "O=C1NC(=O)C(c2cn(CCCn3ccnc3)c3ccccc23)=C1Nc1ccccc1", "remaining activity": "95.6%"}
{"SMILES": "COc1ccc(CNC(=O)Nc2ncc([N+](=O)[O-])s2)cc1", "remaining activity": "97.9%"}
{"SMILES": "Cc1ccc(NC(=O)c2ccc(CN3CCN(C)CC3)cc2)cc1Nc1nc(-c2cccnc2)cs1", "remaining activity": "96.4%"}
{"SMILES": "Cc1nc(-c2ccccc2)c(-c2ccncc2)o1", "remaining activity": "97.5%"}
{"SMILES": "O=C1NC(=O)C(c2cn(CCCO)c3ncccc23)=C1c1cnccn1", "remaining activity": "54.5%"}
{"SMILES": "COc1cc2ncnc(Nc3ccc(F)c(Cl)c3)c2cc1OCCCN1CCOCC1", "remaining activity": "76.9%"}
{"SMILES": "O=C(Nc1cccc(Nc2cc(Nc3cccc(C(F)(F)F)c3)ncn2)c1)C1CC1", "remaining activity": "109%"}
{"SMILES": "COc1ccc(C(=O)Nc2sc3c(c2C(N)=O)CCCC3)cc1OC", "remaining activity": "102%"}
{"SMILES": "CCOC(=O)c1c(C)[nH]c(/C=C2\\C(=O)Nc3ccccc32)c1C", "remaining activity": "40.8%"}
{"SMILES": "O=S(=O)(c1cccc2cnccc12)N1CCCNCC1", "remaining activity": "97.8%"}
{"SMILES": "COc1cc2nccc(Oc3ccc(NC(=S)NC(=O)c4ccccc4C)cc3)c2cc1OC", "remaining activity": "86.7%"}
{"SMILES": "Nc1[nH]nc2nc3ccccc3nc12", "remaining activity": "97.1%"}
{"SMILES": "CN(C)c1ccc(C=C2C(=O)Nc3ccccc32)cc1", "remaining activity": "78%"}
{"note": "For quick reference, copied from above (block 3):"}
{"target": "CDK5 (Homo sapiens, UniProt Q00535)", "read-out": "cell-free assay", "method": "competition with immobilised ligand", "remaining binding": "97%"}
{"target": "PLK3 (Homo sapiens, UniProt Q9H4B4)", "read-out": "cell-free assay", "method": "competition with immobilised ligand", "remaining binding": "88%"}
{"target": "PIK3CA (Homo sapiens, UniProt P42336, H1047L)", "read-out": "cell-free assay", "method": "competition with immobilised ligand", "remaining binding": "78%"}
{"target": "PI4KB (Homo sapiens, UniProt Q9UBF8)", "read-out": "cell-free assay", "method": "competition with immobilised ligand", "remaining binding": "100%"}
